# Measurements pooled from the literature.
# Each line is one published result; not all experiments were run side by side. ± marks the error that the study gave. No end group written: not given here.
# CHRM4: Muscarinic acetylcholine receptor M4 (CHRM4, Homo sapiens, UniProt P08173)
# Sequence of UniProt P08173 (whole entry, looked up): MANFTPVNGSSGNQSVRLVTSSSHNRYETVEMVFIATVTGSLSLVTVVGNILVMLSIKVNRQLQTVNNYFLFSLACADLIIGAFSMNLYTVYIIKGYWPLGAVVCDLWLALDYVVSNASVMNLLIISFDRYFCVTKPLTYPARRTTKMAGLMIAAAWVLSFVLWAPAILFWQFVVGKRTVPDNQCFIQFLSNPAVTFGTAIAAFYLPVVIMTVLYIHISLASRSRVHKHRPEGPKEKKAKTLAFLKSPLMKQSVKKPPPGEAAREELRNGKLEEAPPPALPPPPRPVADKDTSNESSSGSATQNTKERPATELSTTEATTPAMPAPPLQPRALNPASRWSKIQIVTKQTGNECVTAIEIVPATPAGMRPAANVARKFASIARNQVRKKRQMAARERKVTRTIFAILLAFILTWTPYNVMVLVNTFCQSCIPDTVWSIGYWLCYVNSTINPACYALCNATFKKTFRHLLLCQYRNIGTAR
# CHRM1: Muscarinic acetylcholine receptor M1 (CHRM1, Homo sapiens, UniProt P11229)
# Sequence of UniProt P11229 (whole entry, looked up): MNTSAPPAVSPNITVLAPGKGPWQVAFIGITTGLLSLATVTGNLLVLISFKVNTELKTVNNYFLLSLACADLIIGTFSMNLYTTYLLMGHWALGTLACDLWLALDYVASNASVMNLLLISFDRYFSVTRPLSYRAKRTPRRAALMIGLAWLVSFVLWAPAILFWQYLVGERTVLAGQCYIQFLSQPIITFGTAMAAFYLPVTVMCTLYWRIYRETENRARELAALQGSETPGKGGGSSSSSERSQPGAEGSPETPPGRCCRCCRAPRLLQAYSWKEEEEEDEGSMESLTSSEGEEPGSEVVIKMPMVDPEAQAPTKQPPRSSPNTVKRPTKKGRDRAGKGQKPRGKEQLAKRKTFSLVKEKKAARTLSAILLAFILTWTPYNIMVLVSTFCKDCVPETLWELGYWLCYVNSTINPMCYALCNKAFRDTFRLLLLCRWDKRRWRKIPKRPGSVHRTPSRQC
# SCN10A: Sodium channel protein type 10 subunit alpha (SCN10A, Homo sapiens, UniProt Q9Y5Y9)
# Sequence of UniProt Q9Y5Y9 (whole entry, looked up): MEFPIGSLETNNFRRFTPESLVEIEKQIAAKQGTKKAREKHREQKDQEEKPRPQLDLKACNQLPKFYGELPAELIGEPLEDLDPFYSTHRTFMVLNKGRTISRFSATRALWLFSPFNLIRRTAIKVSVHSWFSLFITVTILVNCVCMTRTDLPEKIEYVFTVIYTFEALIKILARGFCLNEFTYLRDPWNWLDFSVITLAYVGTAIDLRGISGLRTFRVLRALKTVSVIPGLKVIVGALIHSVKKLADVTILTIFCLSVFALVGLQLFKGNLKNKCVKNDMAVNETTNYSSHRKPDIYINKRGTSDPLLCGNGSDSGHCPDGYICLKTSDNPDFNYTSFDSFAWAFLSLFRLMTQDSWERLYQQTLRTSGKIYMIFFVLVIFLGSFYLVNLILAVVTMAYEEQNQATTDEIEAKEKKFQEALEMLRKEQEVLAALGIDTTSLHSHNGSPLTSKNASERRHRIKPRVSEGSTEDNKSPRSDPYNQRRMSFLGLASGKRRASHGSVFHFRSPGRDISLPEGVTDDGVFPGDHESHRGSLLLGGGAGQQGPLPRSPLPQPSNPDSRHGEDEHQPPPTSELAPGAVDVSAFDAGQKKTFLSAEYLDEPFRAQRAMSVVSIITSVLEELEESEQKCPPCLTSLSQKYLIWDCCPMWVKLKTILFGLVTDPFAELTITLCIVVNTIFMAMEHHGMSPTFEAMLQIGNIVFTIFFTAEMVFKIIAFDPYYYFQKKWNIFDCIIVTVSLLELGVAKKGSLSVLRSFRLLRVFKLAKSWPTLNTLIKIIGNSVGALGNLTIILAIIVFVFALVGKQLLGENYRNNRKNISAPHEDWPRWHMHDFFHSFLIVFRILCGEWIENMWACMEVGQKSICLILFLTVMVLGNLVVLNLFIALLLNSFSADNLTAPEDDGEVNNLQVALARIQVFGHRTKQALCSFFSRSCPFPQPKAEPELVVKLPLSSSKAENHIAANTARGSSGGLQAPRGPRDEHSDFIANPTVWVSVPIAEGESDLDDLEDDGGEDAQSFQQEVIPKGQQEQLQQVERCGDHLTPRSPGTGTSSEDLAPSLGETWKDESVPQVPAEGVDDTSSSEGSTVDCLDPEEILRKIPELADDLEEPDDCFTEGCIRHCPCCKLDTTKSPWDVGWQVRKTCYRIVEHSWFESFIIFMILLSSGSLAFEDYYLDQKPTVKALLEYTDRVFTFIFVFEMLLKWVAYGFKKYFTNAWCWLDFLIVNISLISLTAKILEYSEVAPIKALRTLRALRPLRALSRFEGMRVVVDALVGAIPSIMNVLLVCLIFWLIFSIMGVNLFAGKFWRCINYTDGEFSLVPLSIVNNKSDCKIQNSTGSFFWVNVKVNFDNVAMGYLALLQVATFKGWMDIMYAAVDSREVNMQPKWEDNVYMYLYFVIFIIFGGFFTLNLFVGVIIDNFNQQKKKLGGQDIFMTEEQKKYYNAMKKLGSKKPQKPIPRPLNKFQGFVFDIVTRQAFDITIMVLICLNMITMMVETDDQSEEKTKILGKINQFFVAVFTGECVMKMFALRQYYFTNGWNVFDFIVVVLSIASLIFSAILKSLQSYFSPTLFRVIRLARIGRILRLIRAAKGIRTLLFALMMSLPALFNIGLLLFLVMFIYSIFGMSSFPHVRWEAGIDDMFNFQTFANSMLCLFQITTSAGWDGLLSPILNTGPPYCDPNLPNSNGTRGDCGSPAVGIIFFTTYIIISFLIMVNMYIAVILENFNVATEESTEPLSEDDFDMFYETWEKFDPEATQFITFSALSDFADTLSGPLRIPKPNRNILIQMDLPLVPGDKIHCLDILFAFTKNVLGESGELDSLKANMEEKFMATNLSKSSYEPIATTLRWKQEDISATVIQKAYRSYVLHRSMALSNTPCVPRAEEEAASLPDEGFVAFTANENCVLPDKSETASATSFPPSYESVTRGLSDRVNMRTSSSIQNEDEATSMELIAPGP
# T1: c-di-GMP riboswitch (Clostridium acetobutylicum); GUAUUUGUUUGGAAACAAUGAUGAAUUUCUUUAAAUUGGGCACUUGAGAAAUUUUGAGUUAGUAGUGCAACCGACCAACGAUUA
# B1: side-chain stapled; chain GGRTKQEARKSTGG (also: sidechain bridge or staple (positions not given here))
# B2: UGT1A9 (Homo sapiens, UniProt O60656); chain GKLLVVPMDGSHWFTMRSVVEKLILRGHEVVVVMPEVSWQLGRSLNCTVKTYSTSYTLEDLDREFKAFAHAQWKAQVRSIYSLLMGSYNDIFDLFFSNCRSLFKDKKLVEYLKESSFDAVFLDPFDNCGLIVAKYFSLPSVVFARGILCHYLEEGAQCPAPLSYVPRILLGFSDAMTFKERVRNHIMHLEEHLLCHRFFKNALEIASEILQTPVTEYDLYSHTSIWLLRTDFVLDYPKPVMPNMIFIGGINCHQGKPLPMEFEAYINASGEHGIVVFSLGSMVSEIPEKKAMAIADALGKIPQTVLWRYTGTRPSNLANNTILVKWLPQNDLLGHPMTRAFITHAGSHGVYESICNGVPMVMMPLFGDQMDNAKRMETKGAGVTLNVLEMTSEDLENALKAVINDKSYKENIMRLSSLHKDRPVEPLDLAVFWVEFVMRHKGAPHLRPAAHDLTWYQYHSLDVIGFLLAVVLTVAFITFKCCAYGYRKCLGKKGRVKKAHKSKTH
# Sequence of UniProt Q21974 (whole entry, unmodified, looked up): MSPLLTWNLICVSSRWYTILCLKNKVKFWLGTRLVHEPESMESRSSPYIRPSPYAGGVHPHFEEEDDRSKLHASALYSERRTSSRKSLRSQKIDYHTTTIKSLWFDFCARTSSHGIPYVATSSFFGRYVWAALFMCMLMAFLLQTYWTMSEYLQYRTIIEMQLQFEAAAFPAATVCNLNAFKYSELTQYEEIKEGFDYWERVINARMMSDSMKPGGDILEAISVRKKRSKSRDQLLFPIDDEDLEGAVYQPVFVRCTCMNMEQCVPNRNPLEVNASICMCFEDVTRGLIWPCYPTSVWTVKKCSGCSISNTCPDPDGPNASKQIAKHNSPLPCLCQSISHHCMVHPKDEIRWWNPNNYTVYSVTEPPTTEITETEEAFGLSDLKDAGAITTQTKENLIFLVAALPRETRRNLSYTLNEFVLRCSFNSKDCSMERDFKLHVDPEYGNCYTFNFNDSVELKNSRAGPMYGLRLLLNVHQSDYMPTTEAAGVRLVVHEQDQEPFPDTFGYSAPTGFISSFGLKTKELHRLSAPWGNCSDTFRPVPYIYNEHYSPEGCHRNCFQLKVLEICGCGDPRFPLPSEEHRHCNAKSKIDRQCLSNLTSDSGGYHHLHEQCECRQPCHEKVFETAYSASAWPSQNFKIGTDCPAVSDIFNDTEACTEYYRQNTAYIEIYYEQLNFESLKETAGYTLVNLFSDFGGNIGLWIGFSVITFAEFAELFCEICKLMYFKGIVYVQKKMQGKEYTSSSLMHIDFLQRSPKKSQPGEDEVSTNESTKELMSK
# Sequence of UniProt P11588 (whole entry, looked up): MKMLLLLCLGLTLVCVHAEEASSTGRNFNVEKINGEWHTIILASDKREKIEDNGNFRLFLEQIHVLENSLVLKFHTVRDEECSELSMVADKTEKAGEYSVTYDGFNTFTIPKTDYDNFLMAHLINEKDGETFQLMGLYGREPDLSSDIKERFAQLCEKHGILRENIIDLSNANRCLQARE
# Sequence of UniProt P42336 (whole entry, unmodified, looked up): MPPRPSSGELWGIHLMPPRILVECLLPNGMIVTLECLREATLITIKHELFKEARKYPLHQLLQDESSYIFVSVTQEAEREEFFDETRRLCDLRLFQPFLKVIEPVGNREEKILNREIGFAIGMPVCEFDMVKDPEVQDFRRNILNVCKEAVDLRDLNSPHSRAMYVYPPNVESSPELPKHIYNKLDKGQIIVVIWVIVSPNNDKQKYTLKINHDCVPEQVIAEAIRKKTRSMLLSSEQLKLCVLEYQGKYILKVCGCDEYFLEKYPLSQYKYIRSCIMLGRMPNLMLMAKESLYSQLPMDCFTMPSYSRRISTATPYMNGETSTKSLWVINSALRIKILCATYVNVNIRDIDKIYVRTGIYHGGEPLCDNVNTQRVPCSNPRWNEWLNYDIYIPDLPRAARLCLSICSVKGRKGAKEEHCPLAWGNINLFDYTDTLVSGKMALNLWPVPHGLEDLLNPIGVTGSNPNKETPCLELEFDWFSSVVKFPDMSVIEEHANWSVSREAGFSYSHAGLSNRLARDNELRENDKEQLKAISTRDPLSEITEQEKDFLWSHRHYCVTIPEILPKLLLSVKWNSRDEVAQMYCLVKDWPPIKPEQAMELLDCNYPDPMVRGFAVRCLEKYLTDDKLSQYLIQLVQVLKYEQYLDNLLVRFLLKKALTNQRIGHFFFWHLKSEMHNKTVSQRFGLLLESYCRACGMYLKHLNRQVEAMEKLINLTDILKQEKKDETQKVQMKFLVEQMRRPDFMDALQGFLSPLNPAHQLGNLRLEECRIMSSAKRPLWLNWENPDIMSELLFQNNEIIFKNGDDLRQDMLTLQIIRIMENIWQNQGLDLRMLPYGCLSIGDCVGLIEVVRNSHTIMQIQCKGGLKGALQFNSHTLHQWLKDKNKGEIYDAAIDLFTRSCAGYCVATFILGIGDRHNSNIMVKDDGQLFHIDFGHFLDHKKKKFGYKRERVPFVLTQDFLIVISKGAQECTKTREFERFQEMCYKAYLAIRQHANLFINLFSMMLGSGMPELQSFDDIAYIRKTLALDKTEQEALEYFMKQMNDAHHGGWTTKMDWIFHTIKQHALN
Substance,tested on,assay,test system,setting,scale,measurement,value
CCCc1nc2c(C)cc(-c3nc4ccccc4n3C)cc2n1Cc1ccc(-c2ccccc2C(=O)O)cc1,"Peroxisome proliferator-activated receptor gamma (PPARG, Homo sapiens, UniProt P37231)",,COS-7,"10 µM, 39 h",,Emax,61.3%
CC[C@H](C)[C@H](NC(=O)[C@H](CC(C)C)NC(=O)[C@H](CC(C)C)NC(=O)CNC(=O)[C@H](Cc1ccc(O)cc1)NC(=O)[C@H](CCCNC(=N)N)NC(=O)[C@H](CO)NC(C)=O)C(=O)N[C@@H](CCCCN)C(=O)N[C@@H](C)C(=O)N[C@@H](Cc1ccccc1)C(=O)N[C@@H](CO)C(=O)N[C@@H](CCSC)C(=O)N[C@H](C(=O)N[C@@H](C)C(=O)N[C@@H](C)C(=O)N[C@@H](CCC(=O)O)C(=O)N[C@H](C(=O)N[C@@H](C)C(=O)N[C@@H](CCCNC(=N)N)C(=O)N[C@@H](CCCNC(=N)N)C(=O)N[C@H](C(=O)N[C@@H](CCCNC(=N)N)C(=O)N[C@@H](CCC(=O)O)C(=O)N[C@@H](Cc1ccccc1)C(=O)N[C@@H](CCCNC(=N)N)C(N)=O)[C@@H](C)O)[C@@H](C)O)[C@@H](C)O,calmodulin 76-148 sites III and IV,"calcium binding, Tyr fluorescence titration",,"12 µM, pH 7.4, 22 °C, with: 6 µM calmodulin",,apparent ΔG1,-6.99 ± 0.56 kcal/mol
O=C(Nc1nc2cccnc2s1)C1CCC1,CHRM4,"calcium mobilization, positive allosteric modulator",CHO expressing hM4 and Gqi5,"concentration not given, with: acetylcholine EC20",,activity,inactive
CCCCCCCCO,"Major urinary protein 1 (Mup1, Mus musculus, UniProt P11588)",isothermal titration calorimetry,,"concentration not given, pH 7.4, 278-308 K",,binding heat capacity change,-646 ± 27 J/(K·mol)
O=c1cc(-c2ccccc2OCc2ccc(-c3nccs3)cc2)ncn1C1CCCCC1O (stereo not drawn),CHRM1,"positive allosteric modulator, IP1 accumulation",CHO-M1 cells,"1 µM, 60 min, 37 °C, with: ACh","baseline: ACh alone, higher = stronger potentiation",ΔpEC50 of ACh,1.01 ± 0.12 log units
COc1ccc(C)c2sc(NS(=O)(=O)c3cccc(C)c3)nc12,CHRM4,"calcium mobilization, positive allosteric modulator",CHO expressing hM4 and Gqi5,"concentration not given, with: acetylcholine EC20",,activity,inactive
B1,"Histone-lysine N-methyltransferase SETD7 (SETD7, Homo sapiens, UniProt Q8WTS6)","peptide methylation, substrate, MALDI-TOF MS",,"10 µM, 3 h, pH 8.0, 37 °C, enzyme 500 nM, with: SAM 30 µM",,methylation conversion,~65%
Cn1cc(-c2ccc(COc3ccccc3-c3cc(=O)n(C4CCCCC4O)cn3)cn2)cn1 (stereo not drawn),CHRM1,"positive allosteric modulator, IP1 accumulation",CHO-M1 cells,"10 µM, 60 min, 37 °C, with: ACh","baseline: ACh alone, higher = stronger potentiation",ΔpEC50 of ACh,1.65 ± 0.43 log units
O=S(=O)(Nc1ccccc1)C1CC2OC1C(c1ccc(O)cc1)=C2c1ccc(O)cc1 (stereo not drawn),"Estrogen receptor beta (ESR2, Homo sapiens, UniProt Q92731)","reporter gene, antagonist",HepG2,with: estradiol 10 nM,"baseline: E2 response, negative is inverse agonism",efficacy,21 ± 6%
N#Cc1cnc(Nc2nc3ccccc3o2)nc1-c1ccccc1,"Metabotropic glutamate receptor 5 (Grm5, Rattus norvegicus, UniProt P31424)","calcium mobilization, negative allosteric modulator",,with: glutamate EC80,baseline: maximal glutamate response,maximal response,1.9 ± 3%
Nc1nc2c(ccn2[C@@H]2O[C@@H]3COP(=O)(O)O[C@H]4[C@@H](O)[C@H](n5cnc6c(=O)[nH]c(N)nc65)O[C@@H]4COP(=O)(O)O[C@H]3[C@H]2O)c(=O)[nH]1,"T1, c-di-GMP riboswitch (Clostridium acetobutylicum)","competitor, competition gel-shift",,"4-24 h, pH 6.8, 22 °C, with: radiolabelled c-di-GMP",,Kd,33 nM
"Ac-GPSLNPFDEED-NH2 (N-acetyl, C-amide)",mouse EHD1 EH domain,"binding, ITC",peptide,"concentration not given, pH 7.0, 20 °C, KCl 0 mM",,entropy change,-11.6 cal/mol/K
B2 (UGT1A9),CCCCOC(=O)c1ccc(O)cc1,steady-state kinetics,,"pH 7.4, 37 °C",,Vmax,0.00269 µmol/min/mg
COC(=O)c1scc(C)c1NC(=O)C(C)N1CCN(C(C)(C)C)CC1 (stereo not drawn),SCN10A,cell membrane chromatography,,,higher = stronger binding,capacity factor k′,0
CCOC(=O)c1cnn(-c2ccc(NC(=O)C(Cl)=C(Cl)Cl)cc2)c1C(F)(F)F,"Short transient receptor potential channel 3 (TRPC3, Homo sapiens, UniProt Q13507)","TRPC3 receptor-operated current, inhibitor, patch clamp",HEK293 transiently expressing TRPC3,"3 µM, with: carbachol maximal activation",,peak current,-2.27 ± 0.96 pA/pF
O=c1cc(-c2ccccc2OCc2ccc(-c3cn[nH]c3)cc2)ncn1C1CCCCC1O (stereo not drawn),CHRM1,"allosteric agonist, IP1 accumulation",CHO-M1 cells,"1 µM, unit not given",baseline: maximum ACh response,change in baseline activity,54.5 ± 3.1
CC(C(=O)O)c1ccc(-c2ccccc2)c(F)c1 (stereo not drawn),"unc-8 (Caenorhabditis elegans, UniProt Q21974, G387E)","ion current, two-electrode voltage clamp",Xenopus oocytes coexpressing MEC-2,"30 µM, -85 mV","baseline: uninjected oocytes, positive = inhibition",current change,0.22 µA
SGVPDRF,,,"peptide, human polyclonal IgM RF CLAU","concentration not given, 5 µg/mL mAb II-481 coated, with: RF at 50% max binding concentration",,inhibition,15%
COC(=O)c1ccc(COc2ccccc2-c2cc(=O)n(C3CCCCC3O)cn2)cc1 (stereo not drawn),CHRM1,"allosteric agonist, IP1 accumulation",CHO-M1 cells,"10 µM, unit not given",baseline: maximum ACh response,change in baseline activity,40.8
CQLGPYELWELSH,rituximab,"QCM frequency change, QCM",peptide,"concentration not given, with: rituximab 1 µg/µL",,binding,increased
CCCn1cc(-c2ccc(COc3ccccc3-c3cc(=O)n(C4CCCCC4O)cn3)cc2)cn1 (stereo not drawn),CHRM1,"positive allosteric modulator, IP1 accumulation",CHO-M1 cells,"10 µM, 60 min, 37 °C, with: ACh","baseline: ACh alone, higher = stronger potentiation",ΔpEC50 of ACh,2.02 ± 0.3 log units
C=CC(C)(CO)c1cc2cc(-c3ccc(O)cc3O)c(=O)oc2cc1O (stereo not drawn),quinone reductase,inducer,Hepa1c1c7,,,concentration doubling activity,> 20 µM
COC(=O)c1scc(C)c1NC(=O)C(C)N1CCSCC1 (stereo not drawn),SCN10A,cell membrane chromatography,,,higher = stronger binding,capacity factor k′,12.8
CC(C)(C)NC(=O)Nc1ncnc2c1ncn2[C@@H]1O[C@@H]2COP(=O)(O)O[C@H]2[C@H]1O,"cAMP-dependent protein kinase type II-beta regulatory subunit, holoenzyme with catalytic subunit (Prkar2b, Rattus norvegicus, UniProt P12369, S112A)","PKA holoenzyme activation, activator, fluorescence anisotropy",,,"baseline: RIIβ over RIα, higher = RIIβ-selective",selectivity ratio,4.9
CIKVAVS,,,"peptide, human polyclonal IgM RF CLAU","concentration not given, 5 µg/mL mAb II-481 coated, with: RF at 50% max binding concentration",,inhibition,0%
O=c1c(O)c(-c2ccc(O)c(O)c2)oc2cc(O)cc(O)c12,"UDP-glucuronosyltransferase 1A1 (UGT1A1, Homo sapiens, UniProt P22309)","enzyme activity, inhibitor",,50 µM,,remaining activity,< 8.4%
NCc1cccc(C2CCN(C(=O)c3cccc(OCC(=O)C4(O)CCC4)c3)CC2)c1,"Tryptase beta-1 (Homo sapiens, UniProt Q15661)",inhibitor,,"10 µM, 9 d, enzyme 100 nM, unbound removed",,remaining activity,< 25%
CCCNC(C)C(=O)Nc1c(C)csc1C(=O)OCC(C)C (stereo not drawn),SCN10A,cell membrane chromatography,,,higher = stronger binding,capacity factor k′,0
O=C(Nc1nc2ccccc2s1)C1CCCCO1 (stereo not drawn),CHRM4,"calcium mobilization, positive allosteric modulator",CHO expressing hM4 and Gqi5,"concentration not given, with: acetylcholine EC20",,activity,inactive
Brc1cccc2[nH]ccc12,"Dehaloperoxidase B, ferric (Amphitrite ornata, UniProt Q9NAV7)","substrate, HPLC",5% methanol,"5 min, pH 7, 25 °C, enzyme 10 µM, with: H2O2 500 µM",,conversion,41.1%
COC(=O)c1scc(C)c1NC(=O)C(C)N1CCS(=O)(=O)CC1 (stereo not drawn),SCN10A,cell membrane chromatography,,,higher = stronger binding,capacity factor k′,0.4
CSc1nc(C)c(-c2ccnc(Nc3ccc(N4CCOCC4)cc3)c2)[nH]1,"Mitogen-activated protein kinase 10 (MAPK10, Homo sapiens, UniProt P53779)","thermal stability, nanoDSF",,50 µM,,melting temperature,54.8 °C
O=c1cc(N2CCOCC2)oc2c(OCc3cccnc3)cccc12,"Phosphatidylinositol 4,5-bisphosphate 3-kinase catalytic subunit alpha isoform (PIK3CA, Homo sapiens, UniProt P42336, H855E)",enzyme activity,,"concentration not given, His-Glu swap",baseline: wild type,fold change in selectivity,10.6
NS(=O)(=O)c1ccc(N2N=C(C(F)(F)F)C[C@H]2c2ccc(F)cc2F)cc1,"Cyclooxygenase-2 (Canis lupus familiaris, UniProt Q8SPQ9)","PGE2 formation, inhibitor",dog whole blood,"24 h, with: LPS",,IC80,38.3 µM
NC(=O)c1ccc(COc2ccccc2-c2cc(=O)n(C3CCCCC3O)cn2)cc1 (stereo not drawn),CHRM1,"allosteric agonist, IP1 accumulation",CHO-M1 cells,"1 µM, unit not given",baseline: maximum ACh response,change in baseline activity,37.9 ± 3.3
CCC(CC)CSc1nc2c([nH]1)c(=S)n(C)c(=O)n2C,"Progesterone receptor (PGR, Homo sapiens, UniProt P06401)","reporter gene, antagonist, MMTV-luciferase",T47D/A1-2,"10 µM, 24 h, with: 5 nM progesterone",baseline: maximal activity,remaining activity,24%

# Repeated from above:
Substance,tested on,assay,test system,setting,scale,measurement,value
Brc1cccc2[nH]ccc12,"Dehaloperoxidase B, ferric (Amphitrite ornata, UniProt Q9NAV7)","substrate, HPLC",5% methanol,"5 min, pH 7, 25 °C, enzyme 10 µM, with: H2O2 500 µM",,conversion,41.1%
COC(=O)c1scc(C)c1NC(=O)C(C)N1CCS(=O)(=O)CC1 (stereo not drawn),SCN10A,cell membrane chromatography,,,higher = stronger binding,capacity factor k′,0.4
CSc1nc(C)c(-c2ccnc(Nc3ccc(N4CCOCC4)cc3)c2)[nH]1,"Mitogen-activated protein kinase 10 (MAPK10, Homo sapiens, UniProt P53779)","thermal stability, nanoDSF",,50 µM,,melting temperature,54.8 °C
O=c1cc(N2CCOCC2)oc2c(OCc3cccnc3)cccc12,"Phosphatidylinositol 4,5-bisphosphate 3-kinase catalytic subunit alpha isoform (PIK3CA, Homo sapiens, UniProt P42336, H855E)",enzyme activity,,"concentration not given, His-Glu swap",baseline: wild type,fold change in selectivity,10.6
